Assay results gathered from unrelated publications.
A part holds a random share of what one study measured.

Set 1
Target: RING finger protein unkempt homolog, zinc fingers 1-6, SBP tag (UNK, Homo sapiens, UniProt Q9C0B0, residues 30-357)
UniProt Q9C0B0, sequence (30-357, looked up): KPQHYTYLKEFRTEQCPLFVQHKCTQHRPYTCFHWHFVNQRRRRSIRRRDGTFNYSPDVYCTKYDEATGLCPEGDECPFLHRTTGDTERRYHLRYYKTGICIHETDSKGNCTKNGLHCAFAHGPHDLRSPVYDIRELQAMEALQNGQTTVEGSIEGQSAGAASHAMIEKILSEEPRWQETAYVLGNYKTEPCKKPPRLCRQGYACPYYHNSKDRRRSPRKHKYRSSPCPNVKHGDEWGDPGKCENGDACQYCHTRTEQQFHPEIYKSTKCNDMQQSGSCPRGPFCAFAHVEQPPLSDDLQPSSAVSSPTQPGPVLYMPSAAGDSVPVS
Method: RNA Bind-n-Seq
Molecule type: RNA
Sample: in vitro
Concentration: 100 nM
Notes: RNA with constant flanks, ends assumed
Reference: input RNA pool
Direction: higher = stronger binding
Sequence	bound/input enrichment [ratio]
GGGAGUUCUACAGUCCGACGAUCCACUCUAAUUAAUUGUAAUCUGAAUAAAGUGUAACAAUUGUGCCGCCUUUUUGUAUAAAACCGACAAACCGAAAAUGGUCCAAUCCGUUUCCUUUUUAAUAUGCUUAAAAUAAGCAGGUGCAACAGAGGAUUGAGCAUCA	0.56
GGGAGUUCUACAGUCCGACGAUCGGUUAAUGUGUUAUUUAUUGAGUAUUGUUUGUGCUAAGCAUUGUGUCCGAUUUAAAAAAUCCGUGGAUUGACUCCACUUUGUUGUGUUGUUUUCAUUGUUGAAAAUAAAUAUAACUUUGUCAACAGAGGAUUGAGCAUCA	0.281
GGGAGUUCUACAGUCCGACGAUCUGAACUUUCCGCUUUCAAGUUGUGGCUGUUUUUUGUUUUUGUUUUUGUUUUUGUUUUCUUCCGAAUUUUUCCCUGUUUCCCACCUUCUCUUCCCCUGUUGCCAAGGUCUAACUCAUGGAUCAACAGAGGAUUGAGCAUCA	1.25

Set 2
Target: Interferon regulatory factor 5, full length, phosphomimetic (IRF5, Homo sapiens, UniProt Q13568-2, residues 1-514, K96S/S451D/S453D/S456D/S462D)
Method: protein-binding microarray
Molecule type: double-stranded DNA, one strand shown
Sample: in vitro
Concentration: 250 nM
Notes: 60-bp whole probe
Added: salmon DNA 0.4 mg/ml
Reference: random background probes
Direction: higher = stronger binding
All sequences stand within: GCCTAGCAC … GTCTTGATTCGCTTGACGCTGCTG
Sequence	log fluorescence [z-score]
TCATGATCCATTTTGGTACTGTGCTAG	0.388
GACGGTTTCGACTACCGGGACGTGCTA	6.28
TTAGGACTGGGGTGTCGGTTAGTGCTA	-0.338
TCACTAGTGTTTTTCTCACTGTGCTAG	0.573
TTAGGACTGCTCCTCCTTTAGTGCTAG	-0.463
TCATCTCTGCTCTTTTCAACTGTGCTA	0.736
TTAGCACTGGGACTGGGTTAGTGCTAG	-0.156
TGAGGTTTCGGTCTCGGTTAGTGCTAG	9.37
GACGGACTGGGACCGGGGACGTGCTAG	-0.798
TTAGGTCTCCCACTGCTTTAGTGCTAG	-0.417
TTCGATTTCAGTCTCGATTAGTGCTAG	3.64
GCCGGTCTCCTTCTCCTGACGTGCTAG	-0.352
CAGCCTTTGCCTCATCTTGCAGTGCTA	-0.0886
TTGTGTCTGGGCATTTTTTTTGTGCTA	-0.459
CTAGGACTGGGGACTGGGTTAGTGCTA	-0.883
TTAGGTTTCCTTTACCTTTAGTGCTAG	0.947
GAAGGTATCCTTATCCTGACGTGCTAG	0.158
TTTGATTTCAGTTCCGATTAGTGCTAG	4.04
ACTCGTGACCCTCTCAAAGGGTGCTAG	-0.528
CTCTTGATCCCGAACTGGCCGTGCTAG	-0.116
CTCTCCATGTGTTTAAAGACGTGCTAG	-0.0412
GGCGGTTTCGGGTATCGGGACGTGCTA	8.18
TCAATTATATATATCATACTGTGCTAG	0.887
GACGATATCAATTTCGAGACGTGCTAG	3.35
GACGGACTGCTTCTCCTGGCGTGCTAG	-0.466

Set 3
Target: Sal-like protein 4, full length isoform A (SALL4, Homo sapiens, UniProt Q9UJQ4, residues 1-1053)
UniProt Q9UJQ4, sequence (whole entry, looked up): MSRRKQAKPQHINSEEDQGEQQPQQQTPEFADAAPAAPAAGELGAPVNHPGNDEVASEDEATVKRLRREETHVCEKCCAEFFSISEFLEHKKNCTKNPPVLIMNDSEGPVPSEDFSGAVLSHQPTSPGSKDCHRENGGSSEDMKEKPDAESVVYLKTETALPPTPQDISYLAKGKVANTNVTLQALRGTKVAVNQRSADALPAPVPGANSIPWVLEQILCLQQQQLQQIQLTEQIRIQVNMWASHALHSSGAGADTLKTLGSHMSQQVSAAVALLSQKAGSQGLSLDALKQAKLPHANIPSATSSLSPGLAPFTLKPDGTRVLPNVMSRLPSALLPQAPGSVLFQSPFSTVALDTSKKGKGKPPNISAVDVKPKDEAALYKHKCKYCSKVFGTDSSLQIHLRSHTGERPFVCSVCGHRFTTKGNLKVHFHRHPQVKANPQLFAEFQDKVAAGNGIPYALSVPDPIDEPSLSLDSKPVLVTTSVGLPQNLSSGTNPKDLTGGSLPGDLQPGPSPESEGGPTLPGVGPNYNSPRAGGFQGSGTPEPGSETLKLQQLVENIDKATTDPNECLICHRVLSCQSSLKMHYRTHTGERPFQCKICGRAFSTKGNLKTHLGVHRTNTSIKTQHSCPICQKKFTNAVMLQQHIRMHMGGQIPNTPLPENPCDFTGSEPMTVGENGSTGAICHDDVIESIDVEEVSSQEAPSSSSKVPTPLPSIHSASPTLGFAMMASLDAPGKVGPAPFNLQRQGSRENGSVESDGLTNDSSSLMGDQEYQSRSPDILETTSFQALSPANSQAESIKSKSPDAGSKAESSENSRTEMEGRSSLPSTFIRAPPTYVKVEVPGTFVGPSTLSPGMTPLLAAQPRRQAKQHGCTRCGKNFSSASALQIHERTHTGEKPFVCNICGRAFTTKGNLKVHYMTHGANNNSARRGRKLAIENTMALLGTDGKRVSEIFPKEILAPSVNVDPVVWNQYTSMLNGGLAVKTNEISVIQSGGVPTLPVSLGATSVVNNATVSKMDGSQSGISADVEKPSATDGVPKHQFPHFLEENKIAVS
Method: universal PBM
Molecule type: double-stranded DNA, one strand shown
Sample: in vitro
Concentration: 600 nM
Notes: 8-mer, flanks averaged, mean of replicates
Direction: higher = stronger binding
Sequence	E-score
AAGTGTTC	0.0142
ACCTAAGT	0.076
CGGCGCGC	-0.253
GCGCGAAC	-0.289
GAACTTAC	-0.038
AGAGAACG	0.0258
AATACGGC	-0.0551
ACATTGTC	0.173
GCCTGTCC	-0.269
CGGCCCTA	-0.226
AGTTTCAA	0.123
GGGCTTCA	-0.207
ACTTCAAC	0.1
CCGATTAA	0.153
CTTCGTCA	0.0259
AGTGCCAT	0.0126
CTCAGTAC	-0.0325
GCCGCGCC	-0.367
ATTCTACG	0.000265
GCCCCCGC	-0.357
AACGGAGG	-0.226
ACAGAACA	0.0775
ATATCAAA	0.386
GCCACGCC	-0.34
AGTGTGAA	0.262

Set 4
Target: Prothrombin, mature alpha-thrombin (F2, Homo sapiens, UniProt P00734)
Method: aptamer microarray, sandwich
Molecule type: DNA with 2'F-ANA
Sample: in vitro
Concentration: 200 nM
Notes: whole 15-mer aptamer, many near background
Added: Cy3 exosite-II aptamer, 400 nM
Direction: higher = stronger binding
Sequence: GGTTGGTGTGGTTGG
Modification	mean fluorescence intensity
2'F-ANA at 4 6 7 9 10	90 a.u.
2'F-ANA at 1 2 4 6 10 14	73.1 a.u.
2'F-ANA at 1 2 5 8 9 10 12	49.1 a.u.
2'F-ANA at 1 2 3 4 5 8 11 14	49.1 a.u.
2'F-ANA at 1 2 3 4 5 9 10 11 13	52.3 a.u.
2'F-ANA at 4 5 6 7 8 9 11 13	55.1 a.u.
2'F-ANA at 1 2 3 4 5 7 8 9 11 12 14 15	50.7 a.u.
2'F-ANA at 2 3 4 7 9 10 11 13	229 a.u.
2'F-ANA at 2 3 4 5 6 7 8 12 13	129 a.u.
2'F-ANA at 1 2 3 4 6 7 8 9 11	141 a.u.
2'F-ANA at 1 3 4 5 6 7 8 12 13	85.5 a.u.
2'F-ANA at 2 7 9 13 14 15	128 a.u.
2'F-ANA at 2 5 6 7 9 10 11	47.3 a.u.
2'F-ANA at 5 6 8 10 13 14 15	111 a.u.
2'F-ANA at 1 3 5 6 8 11 12 13 14	47.5 a.u.
2'F-ANA at 1 3 4 5 7 11 13 14	47.6 a.u.
2'F-ANA at 3 4 7 8 9 10 13 14 15	221 a.u.

Set 5
Target: RNA binding protein fox-1 homolog 2, RRM domain, GST-SBP tag (RBFOX2, Homo sapiens, UniProt O43251-10, residues 100-194)
Method: RNA Bind-n-Seq
Molecule type: RNA
Sample: in vitro
Concentration: 365 nM
Notes: natural RNA segment, single round, ends assumed
Reference: no-protein control
Direction: higher = stronger binding
Target sequence (chain): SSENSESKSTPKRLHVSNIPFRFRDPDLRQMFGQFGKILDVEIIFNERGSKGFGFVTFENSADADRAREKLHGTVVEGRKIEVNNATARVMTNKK
Sequence	RBNS enrichment (R)
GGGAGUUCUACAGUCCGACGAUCCAAAAUCAGUUGUAUUUACAAAACUCUACUUCAGUGUUUGUUUUAGUUUUUUUUUUUACUGAAACUUGUUUUUGUGAAUACUCUGUGCUUAGAAUUAAAUAUCACUUUCUUGGAAUUCUCGGGUGCCAA	0.849
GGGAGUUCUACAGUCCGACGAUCUGUUCACACUGGGGCCAGGAUUUUCAUACUAAAACGUCACUGACAAUGGGGCUACUUUUCUCCUGAAUAGCUCCUCUGGGCUUGUUGCAGUUCUAGUUUUCCCAGUAGUUUGGAAUUCUCGGGUGCCAA	0.492
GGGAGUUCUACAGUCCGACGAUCGGCUCACCUUGCAGAACCAGUGACAAUCUUAUGAGUAUAAUGAACACUCAGCCAGGCCUGUCAUGAUUGGCUUUAUUUCUUUCAUCAUUCAUAAAAGUUUGCAUGUGUUUUGGAAUUCUCGGGUGCCAA	4.85
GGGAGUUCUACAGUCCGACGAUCAUAGAGAAACUACAGCUCUGCCCAUUGUCCUGGGGUCCUGGAACUUCGUCCAGUGUUAAGAACUGAGCCAAGGAGAAGCACGAGCAGCCUUCGCACCUGGAGGGUCAGAAUGGAAUUCUCGGGUGCCAA	1.32
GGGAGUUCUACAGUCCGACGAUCAAAAGAAAUAAAAUUGAACCAAAGGAUUUUCCCAGAAAAAAACAAGAAAGCAGUUUUAGAAGGCCAUGACUCAAUUCUUAGGUUUGUAUGCUUAAACAUCUUAGGAAUUUUGGAAUUCUCGGGUGCCAA	0.687
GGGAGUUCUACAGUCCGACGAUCCCGAGGCAGGGUCCAAACCUGAGUGAGGGCCAGCCAUGCCUCCCCUCCCAUUCCUCUGGUCCCUGCCUUGGUCCCUUGCCUGGGAAGAGGGCGAGGAGGCCAGUGGUGGGUGGAAUUCUCGGGUGCCAA	0.337
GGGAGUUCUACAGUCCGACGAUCAAACUGAUCUGCUCCCGGGUGCUUUCUUACCACCAUCUCUGGUGACUUAGCCUCAAAUUGGUGUUUUUCUUUCCCAAGAAUUCAUCUUAAGGGUUAGCUUUGAGUAUGUUUGGAAUUCUCGGGUGCCAA	0.395
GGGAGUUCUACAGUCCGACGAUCCUUAAAUGAUAGGGACUUAAGAGUGCUGAUUGAAGAAAGAUCCUAUUCUUAGGUCUAACUCGAUUUUUGUGCUCAGGGAAGAUGCACUGAUGUCUUCAAAAAAAAAUCAAUGGAAUUCUCGGGUGCCAA	0.302
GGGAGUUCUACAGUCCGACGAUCAAAUGUCUGGAAGGAAACACUGAAAUAAGAAUACAACAUUUCGGUGAAGAGCUGGAAACUUAAAAAAUUAUCAAAAGGAAUUUUGGUAUCAUCUUCAGAGAAAAAAUAAAUGGAAUUCUCGGGUGCCAA	0.612
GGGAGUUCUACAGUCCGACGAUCUCUCCCCUCAUACACAAAAGUACAAUAUGAAGCCUUCAUUUAAUCUCUGCAGUUCAUCUCAUUUCAAAUGUUUAUGGAAGAAGCACUUCAUUGAAAGUAGUGCUGUAAAUUGGAAUUCUCGGGUGCCAA	0.54
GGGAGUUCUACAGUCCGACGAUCAUAAGUGUUGGAGUAACACUUGCAUAAAAGAAUUUAAGGAGUGAUAGCUCUUUCUGUUCUGCCAUUCCCAACAUUCCUGGGGGAAAGGAGACUCAAUGAGUUAAUACUAUUGGAAUUCUCGGGUGCCAA	0.404
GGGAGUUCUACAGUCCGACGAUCCGGGAUAGAAUGGCUGUCCAGUCUAAGCUCAGGGCAGCCUCUUCAACCACUGUUGGCCCAGCCUGGCUUGUGAGGAAACCAGCCCUGUCCCUCAGUAUUGAACUUGGCUGUGGAAUUCUCGGGUGCCAA	0.306

Excerpt of the above (set 2):
Sequence	log fluorescence [z-score]
TTTGATTTCAGTTCCGATTAGTGCTAG	4.04
TTAGCACTGGGACTGGGTTAGTGCTAG	-0.156
GACGGACTGCTTCTCCTGGCGTGCTAG	-0.466
TCACTAGTGTTTTTCTCACTGTGCTAG	0.573
TTAGGACTGCTCCTCCTTTAGTGCTAG	-0.463
TGAGGTTTCGGTCTCGGTTAGTGCTAG	9.37
GACGGTTTCGACTACCGGGACGTGCTA	6.28
